Measurements pooled from the literature.
Each numbered part is a random draw from the data of one study; scales do not carry over between parts. Substitutions count along the parent as printed.

Study 1
Target: RNA binding protein fox-1 homolog 2, RRM domain, GST-SBP tag (RBFOX2, Homo sapiens, UniProt O43251-10, residues 100-194)
Method: RNA Bind-n-Seq
Form: RNA
Matrix: in vitro
Tested at: 365 nM
Setting: natural RNA segment, single round, ends assumed
Reference: no-protein control
Direction: higher = stronger binding
All sequences stand within: GGGAGUUCUACAGUCCGACGAUC … UGGAAUUCUCGGGUGCCAA
Construct (chain): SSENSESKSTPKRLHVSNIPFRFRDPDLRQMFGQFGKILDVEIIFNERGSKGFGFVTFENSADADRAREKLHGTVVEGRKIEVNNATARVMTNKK
Sequence	RBNS enrichment (R)
AGAGACAUCAUCACAAAACAGUAAAAACAAAAUCAACCCUGAACCCCAUGCACUGUGCUGCUUCCUGAGCCUGGCCCUGCAUCCUCAUAGAGGUGCCGGGUUCCUAUUGG	0.511
GUAUUUAUAAGUAUUUUCUUAAGGUUUGUGAAGAGUAUUUGCAUUGUGUCUUCAUUUUAAUGUGUUUGCAAUCGCUCCGCUCCAGGAAGAACGGAAAUGCUGUCUUGUGA	0.661
GGCAUUUUGUCCAGAACAGCUUGUAGCAGCUAUAGAUUCCCCCUUGGCCCCAAGCCUGGGACUUGAGCCAUCGUAACUCACUAACAGGGAGAAUUAGCUAGUAGCAAUGU	0.442
CCACCGAUCUACAAGGGUUGAUCCCUGUUUUUACCAUCAAUCAUCACCCUGUGGUGCAACACUUGAAAGACCCGGCUAGAGGCACUAUGGACUUCAGGAUCCACUAGACA	0.254
CUGUCUCCUGCCUUAGCAGGCCUAUCAAUUUCUUGUCAAUCUCUUUUUUUCCUUGCUCACAUUAAAAGGAAGCAUGGAGUUCUAAUGCUCCCAUAAACUAUGUAUUUUGG	0.736
AUCAAACGGAAGACGGCAGGCCCUGUCCUUCCACUCAGGUGCUGCUUGCAGUGCUCCUCAACAGAGGGAGAGUCUCCCUAAGAUUUCCAUGUUCCUAGACAAAGUCCUAA	0.242
AAAUAUUUGAAAGCACUUAAGCACUCCUCCUUGUGGAAAGAAUAUACCACCAUUUCAUCUGGCUAGUUCACCAUCACAACUGCAUUACCAAAAGGGGAUUUUUGAAAACG	0.748
AGGACUGGCUGUAACCUUAAGCCCAUCAAAGUUACUUCCAGCCUGGAGAGAACCUCACCAAACAGCUGGUGUGGCCUGAGGGUGGCCAUGGUGGGAAAUGGGCAUGAGAA	0.778
UUUAAGACCAUGAUAAUAGAGUAAAAAGGAAAGAAAGCCAGAAAUUACAAUUUUGGAUGCUAAAAAGUAACUUUCUAGUUAACCCUAAAGUCCUGUCAGAUUGUGAAGAA	0.57
UCCCAUGUGUAUUUUCUUACAUACUGUGAAUGUGAAGACCCUAACUGGUACACUUGAUCUUAUGUCCAUAUGAAAGUGCAAAUCUUUAUUAAUUUGGAUUGCCUGAGCAG	0.601
CAGCCGGAGUUGAGAAGGAGUAACAGGUCUGAGGCUGUCCCGGAGAACCACCCAUCCCAGCUCAGCCCCAAGAACCAACCAAAGAGCCAGUCAAAAGCAAGCUGGGUUUG	0.441
CCAGAGUCCACCUGGAAGCCUGUUCCCCUCUCCUCGGCUCCUGGUCCACCAGUGCAUGGCAGUGCCCAUGCAUGCCGGCAUAUUCAGCAGCUGUCACCUUACUCCCAUCC	0.588

Study 2
Target: Histone acetyltransferase KAT6A, winged helix 2, GST fusion (KAT6A, Homo sapiens, UniProt Q92794, residues 85-181)
Method: protein binding microarray
Form: double-stranded DNA, one strand shown
Matrix: in vitro
Tested at: not given
Setting: 8-mer, flanks averaged, mean of 2 arrays, mostly near background
Reference: not given
Direction: higher = stronger binding
Construct (chain): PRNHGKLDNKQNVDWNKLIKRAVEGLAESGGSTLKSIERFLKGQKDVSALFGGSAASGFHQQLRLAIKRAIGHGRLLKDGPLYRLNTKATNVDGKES
Sequence	E-score
AGGTTCAA	0.0351
CGATATAA	-0.0409
GCCGAGAA	0.119
CCTTGAGA	0.0286
ACGCATCC	0.0192
CGGTTCGA	0.242
ATTAGATC	0.0437
ATGAATTG	-0.0997
GTCCCGAC	0.182
AAGGGTAC	-0.187
GGGGAGGA	0.158
TGATAGAA	-0.00968
AAGAACGC	0.0973
GAGTTTGC	0.0809
CCCACCAA	0.0203
CCGCTCCA	0.0445
AAAATTTC	0.0901
AGACCTAT	0.0157
ATTACGAG	-0.0984
AATCAGAG	0.0953
CTATGATA	0.137
GTCTAGAC	-0.18
TGCGCCAA	0.0358
ACGGGCAT	-0.118

Study 3
Target: RING finger protein unkempt homolog, zinc fingers 1-6, GST-SBP tag (UNK, Homo sapiens, UniProt Q9C0B0, residues 30-357)
Chain of UniProt Q9C0B0 (30-357, looked up): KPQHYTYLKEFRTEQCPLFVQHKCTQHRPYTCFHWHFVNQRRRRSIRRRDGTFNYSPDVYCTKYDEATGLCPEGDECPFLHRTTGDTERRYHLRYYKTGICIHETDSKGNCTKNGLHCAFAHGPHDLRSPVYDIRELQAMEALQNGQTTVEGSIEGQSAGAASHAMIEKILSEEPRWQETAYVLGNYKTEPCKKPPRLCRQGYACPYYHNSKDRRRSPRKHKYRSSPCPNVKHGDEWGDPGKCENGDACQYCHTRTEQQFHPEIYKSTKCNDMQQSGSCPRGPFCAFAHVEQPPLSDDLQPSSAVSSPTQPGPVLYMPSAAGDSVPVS
Method: RNA Bind-n-Seq
Form: RNA
Matrix: in vitro
Tested at: not given
Setting: RNA with constant flanks, human and mouse sites, ends assumed
Reference: input RNA pool
Direction: higher = stronger binding
All sequences stand within: GGGAGUUCUACAGUCCGACGAUC … CAACAGAGGAUUGAGCAUCA
Sequence	bound/input enrichment
CUGUCUGAUAUCAUGGUCUCCCUGGCAAAUGCGUCAACUUUGCAGAAGGAUUGCAGUUGGAUAGAAAUGAUAAGGAAAUUUGUAACAGAGACCCUUGAAGAUGGCUCUAGGCUAAAUAGU	1.58 ratio
UUGUGUAAAUGCGUUCGUGUUCUCAGUCUCCCUACCGACAGUGACAAGUCAAAGCCGCAGCUUUCCUCCUUAACUGCCACCUCUGUCCCGUUCCAUUUUGGAUCUUCAGCUCAGUUCUCA	0.209 ratio
GCAAUAAUAUGUCAAUAAGUUACAUAAAGAUGCCCAUGUGACAGCACCCCCAAUCAGUGGCUUAGAGGGCUUAAAAAUGCUGUAUUUAUUUUUAAAACUUUGGCUUAAAGGCAUAAGAAG	0.326 ratio
UUAAUAAUAGGAAAAGGAGGUGAAACCAUAAAAAGCAUAAGCCAGCAGUCUGGUGCAAGAAUAGAACUUCAGAGAAAUCCUCCACCAAAUGCAGAUCCUAAUAUGAAGUUAUUUACAAUU	0.296 ratio
AAAAUUUUAGAAGAGUUUAGGAAAACACAGCAGACAUCUCCUGAUAAAGUGGAUUAUGAAUAUAGUGAACUCCUCUUAUAUCAGAAUCAAGUUCUUCGGGAAGCAGGUCUUUAUAGAGAA	6.26 ratio
AAUACAGAAUUUGGAGCAUUUGUAGGACACAGAGAUAGCAUGGAUUUACAGAGGUUUAAAGAAACAUCAAACAAGAUAAAAAUACUAUCCAAUAACAAUACUUCUGAAAACACUUUGAAA	0.367 ratio
ACUCUUGACUCUUUCCAUCCUCUUCCUUUCCCUCUUGAUAUUCAAGGCCAUGAAUCCCAAAAUAACAGUCUUAGUGGCUAGCACCCAAACAGAGGUGGAAUAAAUCCACCCCAGUGUCUC	0.6 ratio
UUUGAUGUCAUGGUGAUGCCUAAUCUCUAUGGUAACAUUGUCAACAACGUCUGUGCAGGGCUAGUUGGAGGCCCAGGCCUUGUGGCUGGGGCCAACUAUGGCCAUGUGUAUGCAGUAUUC	0.169 ratio
UCGCCUGUUCAGGACAUCGACACUCCAGAGGUUGAUUUGUACCAAUUACAAGUAAAUACACUUAGAAGAUACAAAAGACACUUCAAGCUUCCAACCAGACCAGGUCUAAAUAAAGCACAA	0.144 ratio
UAUAUCACGCUGCCCCUGGCCUUGCUCUUCCUCAUCGUUCGAUACUUCUUUGAGCUGUACGUGGCUACACCACUGGCUGCCCUCUUGAACAUAAAGGAGAAAACUCGGCUGCGGGCACCU	0.11 ratio
UCUCCUGUGAUCACAUCUUGUCUCGGCUGUAGGAAUCAACAGAAGGAGACGUCCUCUACAUAAAAGCUCCAUGUGAAAAGCUACUCCUAGUCUUAACAUUUGCAGUCCUUGUGUCACUGU	0.298 ratio

Study 4
Target: CCNB1, cyclin fold, Cln2 fusion (human)
Method: yeast growth competition, sequencing
Matrix: yeast
Setting: strong parent motif
Reference: not given
Direction: higher = stronger binding
Starting sequence: PKN2 docking peptide (human); VSAVRKLDFSDTM; partner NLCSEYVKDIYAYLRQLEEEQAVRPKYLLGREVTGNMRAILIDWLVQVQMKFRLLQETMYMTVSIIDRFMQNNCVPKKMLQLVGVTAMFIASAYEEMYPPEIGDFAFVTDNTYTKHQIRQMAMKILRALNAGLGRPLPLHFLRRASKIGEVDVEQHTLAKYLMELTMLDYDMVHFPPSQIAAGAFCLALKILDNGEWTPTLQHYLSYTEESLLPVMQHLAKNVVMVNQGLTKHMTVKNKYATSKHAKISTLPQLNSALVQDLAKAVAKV
Substitution	normalised enrichment score
VSAVRKLDVSDTM [F9V]	0.523
VSAVRKLDFVDTM [S10V]	2.65
VSAVEKLDFSDTM [R5E]	0.385
VSAVRKLDFCDTM [S10C]	3.77
VSAVRKLDFLDTM [S10L]	2.69
VSAVRKLDFSDGM [T12G]	3.62
VSAVRKLDFKDTM [S10K]	2.16
VSAVRKLDFQDTM [S10Q]	3.02
VSAVHKLDFSDTM [R5H]	0.818
VSAVRKLDFSATM [D11A]	2.91
VSHVRKLDFSDTM [A3H]	2.33
VSAVRKIDFSDTM [L7I]	1.77
VSAVRKQDFSDTM [L7Q]	0.179
VSAVRKLQFSDTM [D8Q]	2.07
VSAVRKRDFSDTM [L7R]	0.109
VSRVRKLDFSDTM [A3R]	0.358
VSFVRKLDFSDTM [A3F]	2.93
VSAVRFLDFSDTM [K6F]	1.96
VSAVRKHDFSDTM [L7H]	0.183
VSAVRKLDFSDVM [T12V]	3.23
VSAVRKLAFSDTM [D8A]	1.13
VSAVRKCDFSDTM [L7C]	-0.0907
VSAVSKLDFSDTM [R5S]	0.617
VTAVRKLDFSDTM [S2T]	3.53
VSAVRKLDYSDTM [F9Y]	1.52

Study 5
Target: Ras GTPase-activating protein-binding protein 1, full length (G3BP1, Homo sapiens, UniProt Q13283)
Chain of UniProt Q13283 (whole entry, looked up): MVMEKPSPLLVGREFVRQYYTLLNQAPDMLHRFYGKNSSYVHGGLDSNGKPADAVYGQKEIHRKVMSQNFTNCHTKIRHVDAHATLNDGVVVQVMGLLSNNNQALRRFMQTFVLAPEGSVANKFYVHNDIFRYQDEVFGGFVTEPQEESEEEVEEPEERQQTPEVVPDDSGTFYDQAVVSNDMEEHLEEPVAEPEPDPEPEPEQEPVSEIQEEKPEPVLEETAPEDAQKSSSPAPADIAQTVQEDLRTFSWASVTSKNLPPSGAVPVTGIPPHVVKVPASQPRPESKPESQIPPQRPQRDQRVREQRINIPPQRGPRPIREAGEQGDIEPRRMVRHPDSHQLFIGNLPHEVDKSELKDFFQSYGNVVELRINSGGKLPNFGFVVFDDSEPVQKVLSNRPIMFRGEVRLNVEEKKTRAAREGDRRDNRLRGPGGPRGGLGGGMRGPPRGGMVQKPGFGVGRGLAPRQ
Method: RNA Bind-n-Seq
Form: RNA
Matrix: in vitro
Tested at: 200 nM
Setting: whole 134-nt RNA, ends assumed
Together with: 150 mM LiCl
Reference: input library
Direction: higher = stronger binding
Library: 7-deaza-guanosine replaces G
All sequences stand within: GGGAGUUCUACAGUCCGACGAUC … UGGAAUUCUCGGGUGUCAAGG
Sequence	log2 enrichment
UAACUUUAGAGGAGGAUCUGAUGGAUAUGGCAGUGGACGUGGAUUUGGGGAUGGCCAUAAUGGGUAUGGAGGAGGACCUGGAGGUGGCAA	-0.294
AGUCCUGUGCUACACAUCGUAUGUACCGAAUCGGGGAAAGGGGAGGGGUUUUUGGGGAAAGUAUUAUGUUACGCCGUUCGGAUCUGCACU	0.0292
AGUCCUGUGCUACACAUCGUAUGUACCGAAUCGGGAAAAAAAGGGAGGGUUUUUGGGAAAGUAUUAUGUUACGCCGUUCGGAUCUGCACU	-1.6
CACAGACAACACGCACCCACACAGACACAGAGGGAAGGGGUUGGGAUGGGGACAGGGUGCACAGCAGGGCGGGGUAGGACCCCAGCCCAU	-0.477
UUCCUCAAGUCCUGUGCUACACAUCGUAUGUACCGAAUCGGAGGAGGGAGGAAAGUAUUAUGUUACGCCGUUCGGAUCUGCACUUCCAGC	-1.17
UCCUGUGCUACACAUCGUAUGUACCGAAUCGGUUUUUUGGGGUUUUUUGGGUUUUUUGGAAAGUAUUAUGUUACGCCGUUCGGAUCUGCA	0.758
GCAAGAAGUAAAAACAAAUGGAAAUGCUUCGGAUAGUGGCAGGGGUGGGGGUUGCUAAGGAAAGGGUGGGAUGGGAGUGGGUAAAGAGUU	-0.337
GGCGGAGCAGCUGAUGGAGGAGUGGAACGAAGACCUAGACGGCAUGGAGGGUUUCGUGCUGGAGGGCAAGAAGUUUGCGCGGCUGCCGGA	-1.56
UAACUUUAGAGGAGGAUCUGAUGGAUAUGGCAGUGAACGUGGAUUUGGGGAUGGCUAUAAUGGGUAUGGAGGAGGACCUGGAGGUGGCAA	-0.0346
UAUUAAUUUGAUAUAUUUAUUAUGAUUUGUAGAGGACGUCGGUGAUGAAGGAGAAGAAGAAAAAGAAUUCAUUUCCUAUAACAUCAACAU	-3.86
GUGGACAACGCGUACUGGCUGUGGACUUUCCAGGGACGCCUCCUGCAGAAGAACAACAAGGACCGCUUCUGCCAGCUGCUGUGGCGGCCC	-0.864

Some of these lines once more (study 4):
Substitution	normalised enrichment score
VSAVEKLDFSDTM [R5E]	0.385
VSAVRKLDFCDTM [S10C]	3.77
VSAVRKLDFLDTM [S10L]	2.69
VSAVRKLDFSDGM [T12G]	3.62
VSAVRKLDFKDTM [S10K]	2.16
VSAVRKLDFQDTM [S10Q]	3.02
VSAVHKLDFSDTM [R5H]	0.818
VSAVRKLDFSATM [D11A]	2.91
VSHVRKLDFSDTM [A3H]	2.33
VSAVRKIDFSDTM [L7I]	1.77
VSAVRKQDFSDTM [L7Q]	0.179
VSAVRKLQFSDTM [D8Q]	2.07
VSAVRKRDFSDTM [L7R]	0.109
VSRVRKLDFSDTM [A3R]	0.358
